Published values collected from several papers.
Lines come from different studies, so protocols differ. “And” joins repeats or separate records; there may be more than shown. Numbers after ± are the reported error.

SMILES | test | test system | setting | how to read | measurement | value
N#C[C@@]1(c2ccc3c(N)ncnn23)O[C@H](CO)[C@@H](O)[C@H]1O |  | beagle dog, male, plasma | oral, 6.5 mg/kg, capsule |  | elimination rate constant | 5.68e-05 s⁻¹
Cn1c(C(F)(F)F)cc(=O)n(-c2cc(Oc3cccnc3OCC(=O)O)c(Cl)cc2F)c1=O |  | beagle dog, female, plasma | oral capsule, 1000 mg/kg/day epyrifenacil, day 1, 90-day study |  | Tmax | 4 h
CCN1CCN(Cc2ccc(NC(=O)c3ccc(C)c(NC(=O)c4cncc(-c5cccs5)c4)c3)cc2C(F)(F)F)CC1 |  | C57BL/6 mouse, plasma | intraperitoneal, 20 mg/kg, single dose |  | Vz/F | 32.9 L/kg
NC(=O)N1c2ccccc2C=Cc2ccccc21 |  | human | concentration not given |  | ALT increase resolution time | 20 days
CO[C@H]1C[C@@H]2CC[C@@H](C)[C@@](O)(O2)C(=O)C(=O)N2CCCC[C@H]2C(=O)O[C@H]([C@H](C)C[C@@H]2CC[C@@H](OC(=O)NCCOCCOCCOCCOCCOCCOCCOCCOCCC(=O)N3CCc4cc(Cn5nc(-c6ccc7oc(N)nc7c6)c6c(N)ncnc65)ccc4C3)[C@H](OC)C2)C[C@@H](O)[C@H](C)/C=C(\C)[C@@H](O)[C@@H](OC)C(=O)[C@H](C)C[C@H](C)/C=C/C=C/C=C/1C |  | mice, plasma | intraperitoneal, 3 mg/kg, weekly dosing |  | unbound Cmax | 3.7 to 14.7 nM
O=C(O)CNC(=O)c1ncc(-c2cccc(Cl)c2)cc1O |  |  |  |  | pKa (basic) | < 2
CN(C(=O)n1cnc(-c2cccnc2)c1)[C@H]1CC[C@H](O)CC1 |  | rat, cerebellum | oral, 10 mg/kg single dose, 24 h |  | tissue concentration | 13.3 ± 0.8 ng/g
Nc1ccn([C@@H]2O[C@H](CO)[C@@H](O)C2(F)F)c(=O)n1 |  | Sprague-Dawley rat, male, plasma | intraperitoneal, 5 mg/kg |  | CL/F | 1.12 ± 0.23 (mg/kg)/(µg/mL)/h
Cc1noc2c1-c1ccccc1C(c1ccc(Cl)cc1)=N[C@H]2CC(N)=O |  | Crl:CD1(ICR) mice, female, plasma | intravenous, 5 µmol/kg |  | AUC(0-last) | 6.46 µM·h
COc1c(N2C[C@@H]3CCCN[C@@H]3C2)c(F)cc2c(=O)c(C(=O)O)cn(C3CC3)c12 |  | male Hartley guinea pigs, anaesthetized | intravenous, 5 mg/kg group, baseline before infusion |  | mean blood pressure | 33 ± 0.2 mmHg
CN1C(=O)[C@@H](NC(=O)c2nnc(Cc3ccccc3)[nH]2)COc2cccnc21 | phase I single ascending dose | human, male and female | oral, 10 mg, fasted |  | participants with any TEAE | 50%
COc1ccc2c(=O)n(C)c(-c3ccccc3)nc2c1 |  | Sprague-Dawley rat, male, bladder | oral, 30 mg/kg, 0.5 h |  | tissue concentration | 9.44 ng/mL
C[C@@]1(c2cc(NC(=O)c3ccc(C#N)cn3)ccc2F)C=CSC(N)=N1 |  | elderly humans, both sexes, plasma | oral, 30 mg single dose |  | dose-normalised AUC(0-inf) | 84.9 ng·h/mL
C=CC(=O)Nc1cc(Nc2ncc(C(=O)OC(C)C)c(-c3cn(C)c4ccccc34)n2)c(OC)cc1N(C)CCN(C)C | saturable absorption PK model | mouse |  |  | maximum absorption rate | 3.29 µmol/h
Cl.[2H]C([2H])([2H])CC(=O)c1cnc(NC(=O)C2CC2)cc1Nc1cccc(-c2ncn(C([2H])([2H])[2H])n2)c1OC | geometric mean | human | oral, 40 mg twice daily, day 7, fed, liquid, multiple dose |  | AUC(0-tau) | 3.69 µg·h/mL
CC(C(=O)NCC(=O)NCC(CNC(=O)CNC(=O)C(C)N1CCN(CC(=O)[O-])CCN(CC(=O)[O-])CCN(CC(=O)[O-])CC1)(CNC(=O)CNC(=O)C(C)N1CCN(CC(=O)[O-])CCN(CC(=O)[O-])CCN(CC(=O)[O-])CC1)CNC(=O)CNC(=O)C(C)N1CCN(CC(=O)[O-])CCN(CC(=O)[O-])CCN(CC(=O)[O-])CC1)N1CCN(CC(=O)[O-])CCN(CC(=O)[O-])CCN(CC(=O)[O-])CC1.[Gd+3].[Gd+3].[Gd+3].[Gd+3] (centres unmarked) |  | cynomolgus monkey, liver | dose not given, day 58, PK group |  | lanthanide tissue concentration | 0.43 ± 0.13 nmol/g
Cc1ccc(Sc2ccccc2N2CCNCC2)c(C)c1 | TEAE vomiting | healthy adult men | oral, 10 mg single dose, 8 nights, fed |  | adverse event incidence | 5.3%
Cc1ccc([C@@H]2O[C@H](CO)[C@@H](O)[C@H](O)[C@H]2O)cc1Cc1ccc(-c2ccc(F)cc2)s1 | item: inorganic phosphorus | Japanese type 2 diabetes patients | 400 mg, day 4, 24 h urine collection | baseline: baseline | urinary phosphate excretion change | 170 mg
C[C@@H]1CN(c2c(F)c(N)c3c(=O)c(C(=O)O)cn(C4CC4)c3c2F)C[C@H](C)N1 |  | male Hartley guinea pigs, anaesthetized | intravenous, 10 mg/kg over 10 min, after infusion |  | mean blood pressure | 31 ± 0.1 mmHg

SMILES | test | test system | setting | how to read | measurement | value
CN1CCN(c2cccc3c2CCN(C(=O)/C=C/c2c(-n4cnnn4)ccc(Cl)c2F)[C@@H]3C(=O)Nc2ccc(C(=O)O)cc2)C(=O)C1 |  | healthy human subjects | intravenous infusion, 3 mg/h, 5 days, study |  | upper respiratory infection subjects | 0%
CCOc1c([C@H](C)n2nc(C)c3c(N)ncnc32)cc(Cl)c(F)c1[C@@H]1CNC(=O)C1 |  | rat plasma | 800 ng/mL, 3 h, room temperature | baseline: nominal concentration | stability relative error | 10%
CC/C(=C(\c1ccccc1)c1ccc(OCCN(C)C)cc1)c1ccccc1 |  | male Hartley guinea pigs, anaesthetized | intravenous, 30 mg/kg group, baseline before infusion |  | mean blood pressure | 33 ± 0.3 mmHg
COc1ccc(C[C@@H](C)[C@@H](C)Cc2ccc(OC)c(OC)c2)cc1OC |  | beagle dog male, plasma | oral, 300 mg/kg/day, day 28, median |  | Tmax | 1 h
CCc1cc(C(=O)NC)c2nccc(N3CCc4c(cc(Cn5ccnc5)cc4-c4cn(C)nc4C(F)(F)F)C3=O)c2c1 |  | Sprague Dawley rat | oral, 100 mg/kg once daily, 7 days | baseline: vehicle | change in gastrocnemius weight | -0.14%
C=CCN1CC(=O)N2[C@@H](Cc3ccc(O)cc3F)C(=O)N(Cc3cccc(N4CC(N5CCN(CC)CC5)C4)n3)C[C@@H]2N1C(=O)NCc1ccccc1 |  | advanced solid tumour patients | oral, 100 mg twice daily, any grade, dose-escalation |  | treatment-related diarrhoea | 0%
C[C@@H](Nc1cc(F)cc(F)c1)c1cc(C(=O)N(C)C)cc2c(=O)cc(N3CCOCC3)oc12 |  | patients with advanced solid tumours | oral, dose not given, dose-finding phase |  | patients with related serious AE | 15.9%
CCN1/C(=C/C(C)=O)Sc2ccc(F)cc21 |  | cynomolgus monkey | oral, 30 mg/kg, 6 h post-dose |  | QT interval | 278 ± 42 ms
CNCc1ccc(-c2[nH]c3cc(F)cc4c3c2CCNC4=O)cc1 |  | patients | oral, 360 mg twice daily, all grades |  | constipation incidence | 25%
Cc1cc(Nc2cc3ncccc3c(N[C@@H]3C[C@H]4CC[C@@H](C3)N4CCC#N)n2)n[nH]1 |  | healthy human subjects | oral, 300 mg, 2 weeks, single ascending dose |  | papular rash incidence | 0%
N#Cc1ccc2c(c1)[C@H]1CCCN(C(=O)c3ccc4[nH]cnc4c3)[C@H]1C2 |  | human, female | 40 mg, end of trial |  | androstenedione level | 4.3 nmol/L
COc1cc2c3c(n(CCCN4CCOCC4)c(=O)c2cc1OC)-c1cc2c(cc1C3=O)OCO2 |  | beagle dogs, female, plasma | intravenous infusion, 646 mg/m^2, 1 h infusion |  | Cmax | 1.52 µg/mL
Cc1cc(Nc2ccc(S(F)(F)(F)(F)F)cc2)n2nc(C(C)(F)F)nc2n1 |  | Plasmodium vivax malaria patients | oral, 400 mg |  | adverse event sinus bradycardia | 0%
Cc1c(-c2ccc(N3CCc4cccc(C(=O)Nc5nc6ccccc6s5)c4C3)nc2C(=O)O)cnn1CC12CC3(C)CC(C)(C1)CC(OCCNCC[C@H](O)CO)(C3)C2 |  | anaesthetized male beagle dog | iv infusion, 0.01 mg/kg/min, 45 min |  | plasma concentration | < 0.002 µg/mL
Cc1c(Br)cc(NC(=O)CS(=O)(=O)O)cc1Br |  | CD-1 mice, whole blood | oral, 10 mg/kg |  | unbound Cmax | < 16 nM
COCCc1ccc(OCC(O)CNC(C)C)cc1 (centres unmarked) |  | n-hexane/tris buffer partitioning | pH 9, hydrochloride salt |  | pKa | 9.82 ± 0.01
CC1(C(=O)O)CCC(C(=O)Nc2ccc(Nc3ccccc3)cc2)C1(C)C (centres unmarked) |  | sheep erythrocytes | 1 h, pH 7.5 |  | maximum haemolysis | 2.2%
O=C(O)CNC(=O)c1c(O)cc(CCc2ccccc2)n2ncnc12 |  |  |  |  | pKa (acidic) | 3.3
CC[C@H](C)[C@H](NC(=O)CN)C(=O)N[C@@H](CC(C)C)C(=O)N[C@@H](C)C(=O)N[C@@H](C)C(=O)N[C@H](C(=O)N[C@@H](CCCCN)C(=O)N[C@@H](C)C(=O)N[C@H](C(=O)N[C@@H](C)C(=O)N[C@@H](CCCCN)C(=O)N[C@@H](C)C(=O)N[C@@H](C)C(=O)NCC(N)=O)[C@@H](C)CC)[C@@H](C)CC | circular dichroism at 222 nm | 10 mM SDS | 100 µM, pH 4.0 |  | mean residue ellipticity | -10600 deg cm2/dmol

SMILES | test | test system | setting | how to read | measurement | value
NC1(C(=O)N[C@@H](CCO)c2ccc(Cl)cc2)CCN(c2nc[nH]c3nccc2-3)CC1 |  | metastatic CRPC patients | 480 mg b.i.d., grade 3 to 4, treatment-related, with: enzalutamide 160 mg daily |  | incidence of maculopapular rash | 40%
CN(C(=O)n1cnc(-c2ccc[n+]([O-])c2)c1)C1CCCCC1 |  | cynomolgus monkey, male, plasma | oral, 1.0 mg/kg |  | t1/2 | 2.4 h
O=C(Cc1ccc(OC(F)(F)F)cc1)Nc1cc(C2CC2)[nH]n1 |  |  |  |  | pKa | 3.68
O=C(CCCN1CCC(O)(c2ccc(Cl)cc2)CC1)c1ccc(F)cc1 |  | male Hartley guinea pigs, anaesthetized | intravenous, 0.1 mg/kg over 10 min, after infusion |  | mean blood pressure | 33 ± 0.1 mmHg
CNC(=O)c1cc(Cl)c(OC(C)(C)C(=O)O)cc1OC[C@@H](O)CN1CCC2(CC1)Cc1cc(Cl)ccc1O2 |  | healthy human volunteers, plasma | inhaled, dose not given |  | Clast | 0.044 nM
CCC(CC)C(=O)Oc1cccc(C(O)CCN)c1.O=CO (centres unmarked) | scotopic ERG | BALB/cJ mice | intraperitoneal, 10 mg/kg, 1 h dark adaptation, with: 10,000 lx photobleach, 10 min |  | ERG b-wave amplitude | 12 µV and 37 µV and 21 µV and 63 µV and 31 µV
O=C(N[C@H](Cc1c[nH]c2ccccc12)C(=O)Nc1ccncc1)c1ccc(N2CCN(c3ccc(F)cc3F)CC2)cc1F |  | Swiss Webster mouse, female, fat | oral, 50 mg/kg, 8 h, 20% Kolliphor vehicle |  | concentration | 13800 nM
Cc1cc(-c2nccc3c2ccn3CC(=O)Nc2ccc(-c3cnccn3)cn2)ccn1 |  | human | 15 mg once daily, multiple ascending dose |  | subjects with contact dermatitis | 0%
Cc1cc(-c2nnc(N)nc2-c2ccc(F)cc2)cc(Cl)n1 | item: Rash | IO-naive mCRPC patients, male | oral, dose not given, treatment-related, grade 2 |  | patients with immune-mediated AE | 0%
CCN(CCO)CCCC(C)Nc1ccnc2cc(Cl)ccc12 (centres unmarked) |  | human patient | 200 mg, steady state |  | CLss/F | 23.9 L/h and 14.3 L/h and 9.02 L/h
C[C@@H]1COCCN1c1cc(C2([S@](C)(=N)=O)CC2)nc(-c2cc[nH]c3nccc2-3)n1 |  | Japanese advanced solid tumour patients | oral, 160 mg twice daily, CTCAE grade ≥3 |  | Constipation incidence | 0%
O=C(Nc1nc2cccc(-c3ccc(CN4CCS(=O)(=O)CC4)cc3)n2n1)C1CC1 | item: thrombocytopenia | rheumatoid arthritis patients | oral, 150 mg once daily, 4 weeks, any relatedness |  | treatment-emergent adverse events | 0%
COc1ccc2c(c1)CN(C(=O)CCN1CCC(Cc3ccccc3)CC1)CC[S@@+]2[O-] | telemetry | conscious male beagle dogs | intravenous, 8 mg/kg, 0.5 h |  | QT interval | 179 ± 33 ms
COc1ncc(-c2nc3c(n2C(C)C)[C@H](c2ccc(Cl)cc2)N(c2cc(Cl)cn(C)c2=O)C3=O)c(OC)n1 | LC-MS/MS | human, plasma | oral, 200 mg, cycle 1 day 1, high-dose arm |  | Cmax | 1.17 µg/mL
[Cl][89Zr]([Cl])([Cl])[Cl] | radio-TLC | hydrochloric acid | concentration not given, up to 5 days |  | EDTA reactivity | 100%
O=C(Nc1cnccc1Cl)N1CCN(Cc2ccc3c(c2)OC(F)(F)O3)CC1 |  | healthy young men, plasma | oral, 75 mg once daily, day 10, dosing interval 24 h |  | AUC(0-tau) | 11.3 µg·h/mL
CNC(=O)c1ccc(-c2cnc3ncc(Cc4ccc5ncccc5c4)n3n2)cc1F | CTCAE v4.0, any causality | human cancer patients | oral, dose not given, dose escalation |  | alkaline phosphatase increase incidence (all grades) | 13%
CCCCOC(=O)N1CCN(C(=O)[C@H](CP(=O)(O)O)NC(=O)c2cc(N3CC[C@H](OC)C3)nc(-c3ccccc3)n2)CC1 | item: Chloride | human, blood | 16 mg, 24 h |  | change from baseline | 0.3 ± 2.2 mmol/L
